Assay results collected from several papers.
Lines come from different studies, so protocols differ. ± marks the error that the study gave.
Target: Melanocyte-stimulating hormone receptor (Mc1r, Mus musculus, UniProt Q01727)
Chain of UniProt Q01727 (whole entry, looked up): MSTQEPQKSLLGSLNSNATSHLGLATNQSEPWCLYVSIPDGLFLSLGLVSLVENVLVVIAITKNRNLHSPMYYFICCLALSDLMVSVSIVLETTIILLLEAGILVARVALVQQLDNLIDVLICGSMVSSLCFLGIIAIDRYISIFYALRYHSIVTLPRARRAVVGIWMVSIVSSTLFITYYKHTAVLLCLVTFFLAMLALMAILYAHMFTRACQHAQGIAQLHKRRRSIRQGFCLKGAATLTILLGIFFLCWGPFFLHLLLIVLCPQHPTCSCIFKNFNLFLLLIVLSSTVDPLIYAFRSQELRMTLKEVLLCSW

C#CC[C@H](NC(=O)[C@H](Cc1ccccc1)NC(=O)[C@H](C)NC(=O)[C@H](CC(N)=O)NC(=O)[C@H](Cc1c[nH]c2ccccc12)NC(=O)[C@H](CCCNC(=N)N)NC(=O)[C@@H](Cc1ccccc1)NC(=O)[C@H](Cc1c[nH]cn1)NC(=O)[C@H](CN=[N+]=[N-])NC(=O)[C@@H](N)Cc1ccc(O)cc1)C(=O)N[C@@H](Cc1ccc(O)cc1)C(N)=O  EC50 (agonist): 58 ± 6.3 nM
CCCC[C@H](NC(=O)CNC(=O)CNC(=O)CN1CCN(CC(=O)O)CCN(CC(=O)O)CC1)C(=O)N[C@H]1CC(=O)NCCCC[C@@H](C(N)=O)NC(=O)[C@H](Cc2c[nH]c3ccccc23)NC(=O)[C@H](CCCNC(=N)N)NC(=O)[C@@H](Cc2ccccc2)NC(=O)[C@H](Cc2c[nH]cn2)NC1=O  IC50 (ligand displacement, radioligand): 1.6 nM
CC(C)[C@H](NC(=O)[C@@H]1CCCN1C(=O)[C@H](CCCNC(=N)N)NC(=O)[C@H](CS)NC(=O)[C@H](Cc1c[nH]c2ccccc12)NC(=O)[C@H](CCCNC(=N)N)NC(=O)[C@@H](Cc1ccccc1)NC(=O)[C@H](Cc1c[nH]cn1)NC(=O)[C@H](CCC(=O)O)NC(=O)[C@H](CS)NC(=O)[C@H](CS)NC(=O)[C@@H]1CC(=O)N[C@@H](CCCNC(=N)N)C(=O)NCC(=O)N[C@@H](CC(=O)O)C(=O)N[C@H](Cc2ccc(O)cc2)C(=O)N1)C(N)=O  IC50 (ligand displacement, radioligand): 1 nM
CCCC[C@@H]1NC(=O)[C@@H](NC(=O)[C@H](CCC(=O)O)NC(=O)CNC(=O)CN2CCN(CC(=O)O)CCN(CC(=O)O)CCN(CC(=O)O)CC2)CCCCNC(=O)C[C@@H](C(N)=O)NC(=O)[C@H](C(C)C)NC(=O)[C@@H]2CCCN2C(=O)[C@H](CCCNC(=N)N)NC(=O)CNC(=O)[C@H](Cc2c[nH]c3ccccc23)NC(=O)[C@H](CCCNC(=N)N)NC(=O)[C@@H](Cc2ccccc2)NC(=O)[C@H](Cc2c[nH]cn2)NC(=O)[C@H](CCC(=O)O)NC1=O  IC50 (ligand displacement, radioligand): 2.43 nM
C[C@@H]1NC(=O)[C@H](CC(N)=O)NC(=O)[C@H](Cc2c[nH]c3ccccc23)NC(=O)[C@H](CCCNC(=N)N)NC(=O)[C@@H](Cc2ccccc2)NC(=O)[C@H](Cc2c[nH]cn2)NC(=O)[C@@H](NC(=O)[C@@H](N)Cc2ccc(O)cc2)Cn2cc(nn2)C[C@@H](C(=O)N[C@@H](Cc2ccc(O)cc2)C(N)=O)NC(=O)[C@H](Cc2ccccc2)NC1=O  EC50 (agonist): 5.8 ± 2 nM
CC(C)[C@H](NC(=O)[C@@H]1CCCN1C(=O)[C@H](CCCNC(=N)N)NC(=O)[C@H](CS)NC(=O)[C@H](Cc1c[nH]c2ccccc12)NC(=O)[C@H](CCCNC(=N)N)NC(=O)[C@@H](Cc1ccccc1)NC(=O)[C@H](Cc1c[nH]cn1)NC(=O)[C@H](CCC(=O)O)NC(=O)[C@H](CS)NC(=O)[C@H](CS)NC(=O)CCNC(=O)[C@@H]1CC(=O)N[C@@H](CCCNC(=N)N)C(=O)NCC(=O)N[C@@H](CC(=O)O)C(=O)N[C@H](Cc2ccc(O)cc2)C(=O)N1)C(N)=O  IC50 (ligand displacement, radioligand): 0.8 nM
CCCC[C@H](NC(=O)CNC(=O)CNC(=O)c1ccc(NN)nc1)C(=O)N[C@H]1CC(=O)NCCCC[C@@H](C(N)=O)NC(=O)[C@H](Cc2c[nH]c3ccccc23)NC(=O)[C@H](CCCNC(=N)N)NC(=O)[C@@H](Cc2ccccc2)NC(=O)[C@H](Cc2c[nH]cn2)NC1=O  IC50 (ligand displacement, radioligand): 0.6 nM
CCCC[C@H](NC(=O)CNC(=O)[C@H](CO)NC(=O)CNC(=O)c1ccc(NN)nc1)C(=O)N[C@H]1CC(=O)NCCCC[C@@H](C(N)=O)NC(=O)[C@H](Cc2c[nH]c3ccccc23)NC(=O)[C@H](CCCNC(=N)N)NC(=O)[C@@H](Cc2ccccc2)NC(=O)[C@H](Cc2c[nH]cn2)NC1=O  IC50 (ligand displacement, radioligand): 0.8 nM

Some of these lines once more:
CC(C)[C@H](NC(=O)[C@@H]1CCCN1C(=O)[C@H](CCCNC(=N)N)NC(=O)[C@H](CS)NC(=O)[C@H](Cc1c[nH]c2ccccc12)NC(=O)[C@H](CCCNC(=N)N)NC(=O)[C@@H](Cc1ccccc1)NC(=O)[C@H](Cc1c[nH]cn1)NC(=O)[C@H](CCC(=O)O)NC(=O)[C@H](CS)NC(=O)[C@H](CS)NC(=O)CCNC(=O)[C@@H]1CC(=O)N[C@@H](CCCNC(=N)N)C(=O)NCC(=O)N[C@@H](CC(=O)O)C(=O)N[C@H](Cc2ccc(O)cc2)C(=O)N1)C(N)=O  IC50 (ligand displacement, radioligand): 0.8 nM
